Measurements of several laboratories.
Every numbered part comes from another study and shows a few of its results, in no order.
Chain of UniProt P10721 (whole entry, unmodified, looked up): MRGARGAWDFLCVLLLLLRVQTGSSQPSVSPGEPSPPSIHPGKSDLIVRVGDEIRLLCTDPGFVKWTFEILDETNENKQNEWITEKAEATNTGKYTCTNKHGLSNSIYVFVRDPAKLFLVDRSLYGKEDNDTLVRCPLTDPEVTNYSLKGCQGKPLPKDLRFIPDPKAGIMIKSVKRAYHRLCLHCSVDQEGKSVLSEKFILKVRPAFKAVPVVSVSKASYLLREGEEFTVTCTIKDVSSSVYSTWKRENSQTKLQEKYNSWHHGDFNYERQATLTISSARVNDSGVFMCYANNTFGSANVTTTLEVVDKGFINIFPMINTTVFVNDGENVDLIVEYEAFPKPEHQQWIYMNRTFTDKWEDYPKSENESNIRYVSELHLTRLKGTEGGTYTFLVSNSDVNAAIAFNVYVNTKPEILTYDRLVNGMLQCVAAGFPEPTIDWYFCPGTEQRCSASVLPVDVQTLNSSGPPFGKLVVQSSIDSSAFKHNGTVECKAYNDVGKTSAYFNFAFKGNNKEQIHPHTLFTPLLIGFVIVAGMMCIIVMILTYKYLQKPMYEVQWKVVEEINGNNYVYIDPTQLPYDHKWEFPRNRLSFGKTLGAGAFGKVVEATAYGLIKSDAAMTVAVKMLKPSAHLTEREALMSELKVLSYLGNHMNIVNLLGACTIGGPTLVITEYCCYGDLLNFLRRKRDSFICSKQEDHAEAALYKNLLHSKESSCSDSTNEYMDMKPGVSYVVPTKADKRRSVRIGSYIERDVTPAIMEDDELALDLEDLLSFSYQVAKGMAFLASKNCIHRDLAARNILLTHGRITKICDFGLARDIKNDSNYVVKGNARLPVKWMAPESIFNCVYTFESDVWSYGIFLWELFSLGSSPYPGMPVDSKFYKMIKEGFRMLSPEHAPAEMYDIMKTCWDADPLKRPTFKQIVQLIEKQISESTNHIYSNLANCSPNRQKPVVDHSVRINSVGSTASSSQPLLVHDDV
Chain of UniProt Q13546 (whole entry, looked up): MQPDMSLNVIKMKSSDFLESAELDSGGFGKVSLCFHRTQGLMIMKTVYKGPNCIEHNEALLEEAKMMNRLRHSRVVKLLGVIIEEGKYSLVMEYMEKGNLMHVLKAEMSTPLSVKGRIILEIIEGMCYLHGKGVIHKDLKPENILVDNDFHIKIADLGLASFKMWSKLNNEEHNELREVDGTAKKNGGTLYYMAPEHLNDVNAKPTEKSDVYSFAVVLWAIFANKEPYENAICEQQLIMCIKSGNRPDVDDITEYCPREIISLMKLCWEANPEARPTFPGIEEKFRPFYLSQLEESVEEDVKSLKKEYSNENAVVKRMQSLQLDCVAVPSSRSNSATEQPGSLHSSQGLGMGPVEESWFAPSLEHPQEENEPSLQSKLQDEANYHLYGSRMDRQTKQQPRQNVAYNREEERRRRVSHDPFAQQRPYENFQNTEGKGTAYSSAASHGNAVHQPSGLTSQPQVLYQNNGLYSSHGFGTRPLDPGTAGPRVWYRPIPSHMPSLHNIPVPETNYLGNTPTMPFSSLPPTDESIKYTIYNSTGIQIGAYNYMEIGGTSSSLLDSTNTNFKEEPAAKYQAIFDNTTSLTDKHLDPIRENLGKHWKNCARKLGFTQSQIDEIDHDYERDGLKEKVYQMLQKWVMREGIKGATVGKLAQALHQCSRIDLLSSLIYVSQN
Chain of UniProt P21802 (whole entry, looked up): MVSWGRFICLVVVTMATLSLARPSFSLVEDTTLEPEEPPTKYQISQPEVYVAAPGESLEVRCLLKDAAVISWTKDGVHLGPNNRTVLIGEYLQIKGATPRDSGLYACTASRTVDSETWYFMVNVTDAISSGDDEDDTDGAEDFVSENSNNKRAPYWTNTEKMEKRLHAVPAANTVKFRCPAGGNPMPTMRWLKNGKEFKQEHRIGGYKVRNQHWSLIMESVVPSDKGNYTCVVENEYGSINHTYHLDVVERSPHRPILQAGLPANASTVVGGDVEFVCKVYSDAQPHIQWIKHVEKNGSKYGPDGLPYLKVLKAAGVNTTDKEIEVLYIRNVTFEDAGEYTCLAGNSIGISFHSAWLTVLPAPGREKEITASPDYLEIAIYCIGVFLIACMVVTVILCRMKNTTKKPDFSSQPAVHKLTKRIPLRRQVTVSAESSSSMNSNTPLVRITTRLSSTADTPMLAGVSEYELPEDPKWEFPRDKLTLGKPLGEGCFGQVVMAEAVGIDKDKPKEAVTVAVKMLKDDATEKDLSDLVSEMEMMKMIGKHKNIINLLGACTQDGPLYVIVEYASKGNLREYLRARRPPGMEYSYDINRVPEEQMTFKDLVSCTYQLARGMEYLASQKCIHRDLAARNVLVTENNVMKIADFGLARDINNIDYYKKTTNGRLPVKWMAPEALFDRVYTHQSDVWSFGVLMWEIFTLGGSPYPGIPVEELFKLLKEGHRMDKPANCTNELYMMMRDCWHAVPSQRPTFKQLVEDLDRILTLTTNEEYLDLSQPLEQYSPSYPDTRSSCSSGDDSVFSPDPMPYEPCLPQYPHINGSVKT
Chain of UniProt P51813 (whole entry, looked up): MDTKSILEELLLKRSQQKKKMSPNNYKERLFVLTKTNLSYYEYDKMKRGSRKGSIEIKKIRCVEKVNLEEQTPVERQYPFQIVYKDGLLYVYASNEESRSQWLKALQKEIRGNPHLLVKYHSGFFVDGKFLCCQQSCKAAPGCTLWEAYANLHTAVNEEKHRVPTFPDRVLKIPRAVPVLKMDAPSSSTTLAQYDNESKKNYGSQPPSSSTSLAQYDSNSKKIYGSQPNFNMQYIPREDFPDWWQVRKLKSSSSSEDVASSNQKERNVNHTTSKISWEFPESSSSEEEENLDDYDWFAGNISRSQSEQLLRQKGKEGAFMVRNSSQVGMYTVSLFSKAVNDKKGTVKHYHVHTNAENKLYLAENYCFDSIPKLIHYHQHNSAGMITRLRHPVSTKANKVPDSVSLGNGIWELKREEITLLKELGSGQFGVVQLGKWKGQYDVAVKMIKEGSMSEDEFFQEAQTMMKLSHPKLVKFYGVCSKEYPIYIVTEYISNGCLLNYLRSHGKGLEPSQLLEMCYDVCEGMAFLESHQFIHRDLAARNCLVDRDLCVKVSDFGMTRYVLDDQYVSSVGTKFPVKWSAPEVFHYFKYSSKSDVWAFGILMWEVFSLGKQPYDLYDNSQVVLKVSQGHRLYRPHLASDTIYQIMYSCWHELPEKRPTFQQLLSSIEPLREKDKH
Chain of UniProt P54762 (whole entry, looked up): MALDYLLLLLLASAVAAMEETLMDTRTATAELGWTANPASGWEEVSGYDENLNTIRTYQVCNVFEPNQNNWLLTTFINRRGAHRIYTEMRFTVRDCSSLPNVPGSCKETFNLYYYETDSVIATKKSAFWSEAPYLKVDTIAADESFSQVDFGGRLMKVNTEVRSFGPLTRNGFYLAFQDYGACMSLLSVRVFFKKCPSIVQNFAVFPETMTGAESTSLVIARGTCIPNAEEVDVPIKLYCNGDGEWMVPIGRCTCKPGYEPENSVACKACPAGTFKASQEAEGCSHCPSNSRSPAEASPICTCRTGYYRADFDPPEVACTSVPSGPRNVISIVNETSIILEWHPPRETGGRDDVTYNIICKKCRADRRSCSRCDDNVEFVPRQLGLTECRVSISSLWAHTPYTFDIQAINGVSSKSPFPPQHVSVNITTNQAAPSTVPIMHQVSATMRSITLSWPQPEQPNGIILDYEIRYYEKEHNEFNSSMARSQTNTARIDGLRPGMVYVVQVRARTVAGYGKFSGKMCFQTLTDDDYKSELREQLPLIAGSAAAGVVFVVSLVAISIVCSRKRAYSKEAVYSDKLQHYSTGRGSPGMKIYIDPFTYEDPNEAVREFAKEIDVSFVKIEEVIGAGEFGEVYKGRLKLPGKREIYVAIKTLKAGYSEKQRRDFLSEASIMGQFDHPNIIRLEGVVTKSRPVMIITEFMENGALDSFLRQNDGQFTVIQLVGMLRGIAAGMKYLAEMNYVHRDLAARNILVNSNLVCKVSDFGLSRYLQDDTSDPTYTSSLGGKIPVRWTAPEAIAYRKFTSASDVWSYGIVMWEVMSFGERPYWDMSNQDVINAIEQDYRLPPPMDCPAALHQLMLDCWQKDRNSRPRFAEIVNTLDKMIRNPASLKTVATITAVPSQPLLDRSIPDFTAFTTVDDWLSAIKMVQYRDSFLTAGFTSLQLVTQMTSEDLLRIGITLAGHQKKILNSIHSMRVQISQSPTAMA
Chain of UniProt O75676 (whole entry, looked up): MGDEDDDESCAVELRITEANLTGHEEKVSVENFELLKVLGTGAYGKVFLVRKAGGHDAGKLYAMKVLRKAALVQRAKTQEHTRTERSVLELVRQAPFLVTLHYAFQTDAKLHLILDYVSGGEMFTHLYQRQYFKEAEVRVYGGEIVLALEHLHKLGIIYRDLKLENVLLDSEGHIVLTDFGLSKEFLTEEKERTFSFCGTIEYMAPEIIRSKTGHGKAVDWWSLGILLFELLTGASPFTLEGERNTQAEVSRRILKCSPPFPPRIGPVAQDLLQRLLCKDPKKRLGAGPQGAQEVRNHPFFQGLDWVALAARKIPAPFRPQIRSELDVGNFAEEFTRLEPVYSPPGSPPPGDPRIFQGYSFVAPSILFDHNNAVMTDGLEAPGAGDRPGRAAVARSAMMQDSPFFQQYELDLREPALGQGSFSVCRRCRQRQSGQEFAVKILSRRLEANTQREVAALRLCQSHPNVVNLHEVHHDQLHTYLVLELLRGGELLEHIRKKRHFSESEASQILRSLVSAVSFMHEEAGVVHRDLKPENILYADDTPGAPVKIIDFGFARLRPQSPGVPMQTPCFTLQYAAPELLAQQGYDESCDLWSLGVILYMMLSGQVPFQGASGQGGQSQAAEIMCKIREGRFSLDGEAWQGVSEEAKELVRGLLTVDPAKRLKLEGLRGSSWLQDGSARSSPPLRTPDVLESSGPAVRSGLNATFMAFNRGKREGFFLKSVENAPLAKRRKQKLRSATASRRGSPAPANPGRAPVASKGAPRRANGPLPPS

Sample 1 — species: human cancer patients; medium: plasma; route: oral; setting: median, cycle 1 day 15; relative to: multiple over single dose; measurement: Cmax accumulation ratio
SMILES: COc1ccc(-c2c(Nc3ccccn3)[nH]c3c(C4=CCCCC4)c(-c4ccccc4)nn3c2=O)cc1
200 mg QD: 5.21
400 mg QD: 3.25
50 mg QD: 3.04

Sample 2 — effect on: cell-free assay; technique: competition with immobilised ligand; concentration: 1 µM; measurement: remaining binding
Compound: CC1=C(C#N)C(c2ccc3c(c2)c(NC(=O)c2ccccc2C)nn3C)C(C#N)=C(C)N1
KIT (Homo sapiens, UniProt P10721, D816V): 85%
PIK3CD (Homo sapiens, UniProt O00329): 71%
EPHB1 (Homo sapiens, UniProt P54762): 99%
Ribosomal protein S6 kinase alpha-4, C-terminal kinase domain (RPS6KA4, Homo sapiens, UniProt O75676): 89%
KIT (Homo sapiens, UniProt P10721, T670I/V559D): 100%
BMX (Homo sapiens, UniProt P51813): 85%
FGFR2 (Homo sapiens, UniProt P21802): 97%
DYRK1A (Homo sapiens, UniProt Q13627): 97%
RIPK1 (Homo sapiens, UniProt Q13546): 100%

Sample 3 — technique: phase 2a trial; species: idiopathic pulmonary fibrosis patients; measurement: patients with coronary arteriosclerosis
SMILES: CC(C)n1cnc(-c2ccc(F)cc2)c1-c1ncc(C(=O)Nc2ccc(N3CCN(C)CC3)cc2)[nH]1
30 mg once daily, adverse event grade 2: 0%
dose not given, adverse event grade 5, all dose arms pooled: 0%
60 mg once daily, adverse event grade 3: 0%
30 mg once daily, adverse event grade 5: 0%

Sample 4 — effect on: enzyme activity; action: inhibitor; concentration: 0.5 µM; relative to: control; measurement: remaining activity
Target: Phosphorylase b kinase gamma catalytic chain, skeletal muscle/heart isoform (PHKG1, Homo sapiens, UniProt Q16816)
Residues (Q16816 1-387): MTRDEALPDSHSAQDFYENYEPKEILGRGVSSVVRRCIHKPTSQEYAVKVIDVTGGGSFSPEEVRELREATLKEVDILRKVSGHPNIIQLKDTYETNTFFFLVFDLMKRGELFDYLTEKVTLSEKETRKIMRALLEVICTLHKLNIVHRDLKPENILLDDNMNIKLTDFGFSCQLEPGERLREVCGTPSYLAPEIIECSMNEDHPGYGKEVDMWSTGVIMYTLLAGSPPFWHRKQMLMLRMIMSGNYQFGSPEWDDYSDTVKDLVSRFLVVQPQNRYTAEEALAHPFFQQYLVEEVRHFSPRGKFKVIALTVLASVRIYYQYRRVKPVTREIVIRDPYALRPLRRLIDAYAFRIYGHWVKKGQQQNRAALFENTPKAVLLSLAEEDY
O=C(O)c1ccc2c3c1cccc3c(=O)n1c3ccccc3nc21: 91.5%
Cc1ccc(Nc2nccc(N(C)c3ccc4c(C)n(C)nc4c3)n2)cc1S(N)(=O)=O: 92.5%
Nc1[nH]nc2nc3ccccc3nc12: 86.9%
Cn1c2ccccc2c2c3c(c4c5ccccc5n(CCC#N)c4c21)CNC3=O: 1.76%
Nc1ncnc2n[nH]c(Nc3ccc(F)cc3)c12: 87.5%
O=C(CCCc1ccc(-c2ccccc2F)cc1)Nc1ccc(O)cc1: 89.1%
Cc1nc(-c2ccccc2)c(-c2ccncc2)o1: 96.1%
O=C1NC(=O)C(c2cn(CCCO)c3ncccc23)=C1c1cnccn1: 87.2%
COc1ccc(CNC(=O)Nc2ncc([N+](=O)[O-])s2)cc1: 101%
COc1cc2ncnc(Nc3ccc(Oc4ccccc4)cc3)c2cc1OC: 91.8%
COc1ccc(C(=O)Nc2sc3c(c2C(N)=O)CCCC3)cc1OC: 94.3%
CO[C@H]1C[C@@H]2CC[C@@H](C)[C@@](O)(O2)C(=O)C(=O)N2CCCC[C@H]2C(=O)O[C@H]([C@H](C)C[C@@H]2CC[C@@H](O)[C@H](OC)C2)CC(=O)[C@H](C)/C=C(\C)[C@@H](O)[C@@H](OC)C(=O)[C@H](C)C[C@H](C)/C=C/C=C/C=C/1C: 93%
O=S(=O)(c1cccc2cnccc12)N1CCCNCC1: 90.8%
OCC(O)CCON=C1C(c2c(O)[nH]c3ccccc23)=Nc2ccccc21 (stereo not shown): 8.06%
CCOC(=O)c1c(C)[nH]c(/C=C2\C(=O)Nc3ccccc32)c1C: 73.3%

Excerpt of the above (sample 4):
O=S(=O)(c1cccc2cnccc12)N1CCCNCC1: 90.8%
OCC(O)CCON=C1C(c2c(O)[nH]c3ccccc23)=Nc2ccccc21 (stereo not shown): 8.06%
CCOC(=O)c1c(C)[nH]c(/C=C2\C(=O)Nc3ccccc32)c1C: 73.3%
